# Results gathered from unrelated publications.
# Numbered parts are unrelated; each lists some results of a single study.

# Sample 1 — method: EMSA with sequencing; form: double-stranded DNA, one strand shown; medium: in vitro; concentration: 10 and 20 nM; reference: negative control set to 0; direction: higher = stronger binding
# Target: Hepatocyte nuclear factor 3-alpha (Foxa1, Mus musculus, UniProt P35582, residues 1-468, full length assumed)
# Notes: whole designed probe, mean of two concentrations, ends assumed
# Shared flanks, not repeated: GTGAGCGGTGCCCATTGATGGGGAAC … TTTCACTGGGATCGTGGGGAC
# Construct (chain): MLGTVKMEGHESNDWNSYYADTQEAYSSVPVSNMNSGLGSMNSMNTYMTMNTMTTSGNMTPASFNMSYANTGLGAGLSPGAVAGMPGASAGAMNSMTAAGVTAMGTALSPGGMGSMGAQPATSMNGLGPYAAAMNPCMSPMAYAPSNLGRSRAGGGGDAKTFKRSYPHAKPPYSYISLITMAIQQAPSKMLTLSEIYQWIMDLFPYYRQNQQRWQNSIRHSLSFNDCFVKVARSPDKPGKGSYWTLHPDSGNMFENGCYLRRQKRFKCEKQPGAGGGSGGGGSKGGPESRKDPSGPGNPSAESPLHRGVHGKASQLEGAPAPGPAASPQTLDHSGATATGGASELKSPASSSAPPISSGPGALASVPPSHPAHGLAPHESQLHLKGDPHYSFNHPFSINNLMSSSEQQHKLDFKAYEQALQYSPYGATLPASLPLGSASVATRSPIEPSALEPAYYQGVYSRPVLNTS
Sequence,normalised bound fraction
CTGAATACATCAAAATTGTGTGAGATTATTGTTACCAATAACAAATAAATCTACTTACAAGTGGACCTTATTGTTAGACATGGCATGGCAATGTAAACATAGAACCTTTGAATCAATAAATATAAAATTCATAAAGGATTACATTTTACAGTGGAACAAGTGGTTTCAAGTATAGCAAATCTGAAAATGAAAA,0.5 ratio
AACAAACAAATAAAACAACTAGTATGGAAGCTAGAATAATGTGATGCACCATTACACCAAATATTCAGTCTTAACATGGTTTTTAATATTATGTAATCTTGGAAGGTATTGCCATTGTTCATATGATACAGAATCAATGGTACTCACAATCATCTGAATATGTTGAAAAATGGCATCTTCAAATAAAAATTAT,0.273 ratio
CTGCACCACTCAGCCCCTCCTAGTCCGCTGGAGAAAGTGGCTGAGGGGGTGGTGGGGGATAATTGCATTTCCAAAGTCCGGGCAATCAGCCAATGTAATCTGGCACCTGCGTCACTGTGTGGGCTCTCTAGGCAACAGGTAAAATACATCAAATACACACAATTTCCTGACATTCCAATGCATTTCTGCGTGA,0.00729 ratio
TCCCTTTTATAGGAATTATGCAGAAATTATTCCATTTCTTTGAACATTTGGGAGCATATGCAGAGTAAAGTATAAATGCTTGCAGAATGCCTTAAATTGCATATTGCAGTTTTTCAGAAATTATCTCCCTTCAGCACACCAAAGGCTTTGATTTCTACTAATTCTAATAATATTCAGGGTGAAGGAGAAACTG,-0.0406 ratio
ATCTTCCCCCTCTTCCTTGCCCCACCAGCTCACCTTCCCGGGTATCTGCAAATAAGTATTTATTTTCAAGCCGGCATTCGTTAACCCTCTTCACGCGCATACTGCCAGAGCAAACAGATCTAACATGGTCCTTTGGCGACGCCAGGCTCCGGGAGAGCAAAGCACCGTGTCAGGGCCATGATCCGGGGTGGCC,0.252 ratio

# Sample 2 — method: protein-binding microarray; form: double-stranded DNA, one strand shown; medium: in vitro; concentration: 2540 nM top; notes: 60-bp whole probe; added: salmon DNA 0.4 mg/ml; reference: random background probes; direction: higher = stronger binding; shared flanks, not repeated: GCCTAGCAC … GTCTTGATTCGCTTGACGCTGCTG
# Target: Interferon regulatory factor 3, full length, phosphomimetic (IRF3, Homo sapiens, UniProt Q14653, residues 1-427, S386D/S396D/S398D/S402D/T404D/S405D)
# Residues (chain): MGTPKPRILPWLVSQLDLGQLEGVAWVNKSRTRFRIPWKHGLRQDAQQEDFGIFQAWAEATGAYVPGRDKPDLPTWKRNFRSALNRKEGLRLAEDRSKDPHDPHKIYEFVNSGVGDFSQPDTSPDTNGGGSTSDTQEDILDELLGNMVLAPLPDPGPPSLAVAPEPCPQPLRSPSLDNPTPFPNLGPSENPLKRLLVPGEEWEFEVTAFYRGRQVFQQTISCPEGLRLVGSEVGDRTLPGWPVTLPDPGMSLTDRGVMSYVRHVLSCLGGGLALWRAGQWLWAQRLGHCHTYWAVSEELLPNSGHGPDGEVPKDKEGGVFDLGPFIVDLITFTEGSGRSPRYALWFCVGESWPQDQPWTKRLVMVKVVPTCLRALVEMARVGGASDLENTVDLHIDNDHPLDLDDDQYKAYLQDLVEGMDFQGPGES
Sequence,fitted relative affinity
TTAGCTTTCGACTATCGGTTAGTGCTA,0.653 z-score
TGAAATTTTAGTAACACAGAGTGCTAG,-0.044 z-score
TCATGCTCATTTTTCAGACTGTGCTAG,1.28 z-score
TTAGGACTGCTACTGCTGTAGTGCTAG,-0.844 z-score
TCATATGTCATTTACATACTGTGCTAG,1.11 z-score
TCATAAGTTTCACTCTGCACTGTGCTA,2.77 z-score
GACGATTTCGGGACTGGAAACGTGCTA,1.96 z-score
AGATGGTCCTCTCTCTATTCGTGCTAG,0.479 z-score
TGTGGTGCAGCTCCCTCCTCGTGCTAG,-0.724 z-score
GACGATTTCGGGGATCGAGACGTGCTA,0.962 z-score
TCACGTGTTTTTCTCCTACTGTGCTAG,0.429 z-score
TTAGGTATCCTTGTCCTTTAGTGCTAG,2.78 z-score
TTAGGACTGGGTATCGGTAAGTGCTAG,-0.00639 z-score
GACGGTATCGACTTTCGCGACGTGCTA,1.24 z-score
GACGGACGGGGGTTTCGGGACGTGCTA,0.935 z-score
GGCGGTTTCCTTTCCCTGACGTGCTAG,10.5 z-score
GTCGATTTCAGTCTCGAGACGTGCTAG,3.6 z-score
ATGTTTGTCACTCTCAGAATGTGCTAG,1.24 z-score
AACGATCTCAGTTTCGAGACGTGCTAG,2.56 z-score

# Sample 3 — method: RNA Bind-n-Seq; form: RNA; medium: in vitro; concentration: 365 nM; reference: no-protein control; direction: higher = stronger binding
# Target: RNA binding protein fox-1 homolog 2, RRM domain, GST-SBP tag (RBFOX2, Homo sapiens, UniProt O43251-10, residues 100-194)
# Notes: natural RNA segment, single round, ends assumed
# Shared flanks, not repeated: GGGAGUUCUACAGUCCGACGAUC … UGGAAUUCUCGGGUGCCAA
# Construct (chain): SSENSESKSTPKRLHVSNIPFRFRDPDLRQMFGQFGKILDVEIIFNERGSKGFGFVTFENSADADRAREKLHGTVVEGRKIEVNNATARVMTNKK
Sequence,RBNS enrichment (R)
UUCUGGCUCAGAUGUGUGCAUCCUUUUAGAGCUGUUGUGGGUGUAAGUGACAUGAUGUGGCCAAAAAUCCAAACUGUGCAGUUGCGUUGUGACAAACAUGCAAUGUGCUG,1.01
GGAUGGCAUUUUCCAGGGCAGGAGAAAGUAUGAGAGCCUCAGGAAACCCCAUCAAGGACCGAGUAUGUGUCUGGUUCCUUGGGUGGGACGAUUCCUGACCACACUGUCCA,3.4
UUGCAUCAGGCUUUGCAGAACAAAUGUGAUUCACUUAAACGUUCACACACAGCAACACUGAAAUCCUACAGACCAAACAAACCCACUUGUCAGCAGGAGCCGUGGUCCAG,0.334
GUUUGUUAUUUUUGUUACUGCCUUUUUUGAGAGAUUAUGUAUCUAUAUAGCUACCUGUCUAGAUCUGCAUCUGUGUGCCUAUGUAUAUAUUAUACACACACAGAGGCACU,0.461
CCGGGCAAAUGACCCUGCGAAGCCACGGUGCAGCGCCCCCUGCUGGCGAGCAGCGGGCAGACCUCCAAGGACAGCCUCUAGCUGAGGUCUCAGUCACAUGAAGUGUGACA,0.226
AACAAACAUGACCCUAAAUCUUGACUACAGUCAGGAAAGGAAUCAUUUCUAUUUCUCCUCCAUGGGAGAAAAUAGAUAAGAGUAGAAACUGCAGGGAAAAUUAUUUGCAU,0.499
AUGCCUAAGGGGAGGCCCAACACCAUGAACAACUACGGGGUGCUGCUGCACGAGCUCGGGCUGGACGAGCCGCUGAUGACACCACUGCGGGAGCGCUUCCUGCAGCCGCU,0.447
AUUGCAAAUAGUGAUGUAGUUUUAACCAGUAUGGAUUAGUUCAGGGAUGAACUGCUCCCUCUAGCCUUACUGGCUCUGAUCCACAGGGUUUUGUUUUGUUUUGUUUUGUU,0.718

# Sample 4 — method: protein binding microarray; form: double-stranded DNA, one strand shown; medium: in vitro; concentration: not given; reference: not given; direction: higher = stronger binding
# Target: Histone acetyltransferase KAT6A, winged helix 2, GST fusion (KAT6A, Homo sapiens, UniProt Q92794, residues 85-181)
# Notes: 8-mer, flanks averaged, mean of 2 arrays, mostly near background
# Target sequence (chain): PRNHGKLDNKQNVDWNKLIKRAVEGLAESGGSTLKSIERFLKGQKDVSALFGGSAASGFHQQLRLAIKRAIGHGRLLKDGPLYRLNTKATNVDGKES
Sequence,E-score
CAACTGGG,-0.0131
AAGTTGGA,-0.0253
CCGAATTA,0.0119
GCCTGGTA,-0.0899
AAAGAAAG,-0.0755
CCGGACAA,-0.0577
AATGGTGG,-0.0693
CGTCATTA,-0.17
AAACGGGT,0.0127
ACATTGAG,-0.0356
AATGATAG,-0.0175
CATCTACC,-0.103
AGCGTACG,-0.109
ACCGTAGG,0.00894
ATCAGCAT,0.00587
CTCATCGA,-0.062
CACGAAAC,-0.0515
AATCCTTC,-0.0946
ATTTTAAG,-0.0378
AACAACGT,-0.219
ACAAGTCC,-0.1
TAGCTGAA,-0.0155
GCTTGTCA,0.193
AGGTGCGA,0.0883
CATCTGTA,-0.131
